Results pooled from the literature.
A part holds a random share of what one study measured. Changes are numbered by the printed parent chain.
UniProt Q9H3N8, sequence (whole entry, looked up): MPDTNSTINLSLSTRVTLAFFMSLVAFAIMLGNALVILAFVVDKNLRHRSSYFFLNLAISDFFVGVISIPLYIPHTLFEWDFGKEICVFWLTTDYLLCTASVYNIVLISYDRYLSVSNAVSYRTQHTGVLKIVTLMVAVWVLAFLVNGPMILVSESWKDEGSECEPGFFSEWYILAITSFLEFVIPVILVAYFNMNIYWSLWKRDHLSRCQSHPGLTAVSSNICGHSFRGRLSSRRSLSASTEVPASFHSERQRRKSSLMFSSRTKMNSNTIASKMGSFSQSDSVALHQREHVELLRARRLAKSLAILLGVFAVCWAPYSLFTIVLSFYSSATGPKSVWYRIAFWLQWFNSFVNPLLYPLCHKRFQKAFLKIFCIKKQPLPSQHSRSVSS

Study 1
Target: CCNA2, cyclin fold, Cln2 fusion (human)
Method: yeast growth competition, sequencing
Medium: yeast
Notes: strong parent motif
Reference: not given
Reading: higher = stronger binding
Quantity: normalised enrichment score
Starting sequence: SCAPER docking peptide (human); SNARRSLNFGGST; partner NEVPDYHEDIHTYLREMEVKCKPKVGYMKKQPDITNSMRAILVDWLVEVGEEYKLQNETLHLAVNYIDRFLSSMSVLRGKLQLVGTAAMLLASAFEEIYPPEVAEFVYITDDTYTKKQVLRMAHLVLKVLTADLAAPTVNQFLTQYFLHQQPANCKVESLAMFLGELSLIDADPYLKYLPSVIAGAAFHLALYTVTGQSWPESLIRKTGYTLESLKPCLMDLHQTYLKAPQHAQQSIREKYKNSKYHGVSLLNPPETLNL
SNARRQLNFGGST [S6Q]: 6.61
SCARRSLNFGGST [N2C]: 5.54
SNARRVLNFGGST [S6V]: 6.01
SNARRSLNFPGST [G10P]: 4.86
SMARRSLNFGGST [N2M]: 4.95
SEARRSLNFGGST [N2E]: 4.38
SNARRSLNFGGSC [T13C]: 6.58
SNARRSLFFGGST [N8F]: 5.55

Study 2
Target: PABPC1L2, full length, GST fusion (mouse, UniProt A0ABA7IW68)
Method: RNAcompete
Molecule type: RNA
Medium: in vitro
Concentration: 20 nM
Notes: 7-mer, probes averaged, single round
Reference: mean of 7-mers
Reading: higher = stronger binding
Quantity: 7-mer Z-score
Residues (chain): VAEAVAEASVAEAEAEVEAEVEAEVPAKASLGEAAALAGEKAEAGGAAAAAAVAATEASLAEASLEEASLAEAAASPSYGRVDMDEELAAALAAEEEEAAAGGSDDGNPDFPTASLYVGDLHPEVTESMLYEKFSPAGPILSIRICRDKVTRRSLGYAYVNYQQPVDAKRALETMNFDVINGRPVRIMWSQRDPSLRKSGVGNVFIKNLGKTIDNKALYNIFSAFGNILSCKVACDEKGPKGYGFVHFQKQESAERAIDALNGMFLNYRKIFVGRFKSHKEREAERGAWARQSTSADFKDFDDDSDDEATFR
GGGGAAG: 0.325
CAUCAAC: -0.128
GGUCAGG: 0.0805
GGAGAAC: 0.289
AAGACGC: 0.385
CCUUGAA: -0.0844
GCUCCUU: -0.318
CCGGUCA: -0.193

Single results of other studies
CN(c1ccnc(CNc2nc(Nc3ccc4c(c3)CC(=O)N4)ncc2C(F)(F)F)n1)S(C)(=O)=O
inhibition (Histamine H4 receptor (HRH4, Homo sapiens, UniProt Q9H3N8); cell-free assay; 10 µM): -22.6%

CCOc1cc(=O)n2c(c1C(=O)NCc1ccccc1Cl)CCCCC2
remaining compound (mouse, microsomes or S9; 2 µM, 0.5 h): 0.5%

A few entries again (study 2):
GGGGAAG: 0.325
CAUCAAC: -0.128
